Measurements from different studies.
A part holds a random share of what one study measured.

Study 1 — observed: enzyme activity; mode: inhibitor; concentration: 20 µM; notes: primary screen
Target: Replicase polyprotein 1ab, main protease (rep, Severe acute respiratory syndrome coronavirus 2, UniProt P0DTD1)
Structure (SMILES) | inhibition
C=Cc1c(C)c2cc3nc(c(CC(=O)O)c4[nH]c(cc5nc(cc1[nH]2)C(C)=C5CC)c(C)c4C(=O)O)C(CCC(=O)O)C3C (centres unmarked) | 50.8%
COC(=O)C1=C(C)NC(C)=C(C(=O)OCC(C)C)C1c1ccccc1[N+](=O)[O-] (centres unmarked) | 39.7%
CC(Cc1ccc(O)c(O)c1)C(C)Cc1ccc(O)c(O)c1 (centres unmarked) | 99.7%
O=c1[nH]nc(Sc2ncc([N+](=O)[O-])s2)n1-c1ccc2c(c1)OCCO2 | 96.4%

Study 2 — observed: enzyme activity; mode: inhibitor; concentration: 20 µM
Target: Replicase polyprotein 1ab, polymerase (rep, Severe acute respiratory syndrome coronavirus 2, UniProt P0DTD1)
Structure (SMILES) | inhibition [%]
CC(=O)c1c(C)c2cnc(Nc3ccc(N4CCNCC4)cn3)nc2n(C2CCCC2)c1=O | 2.66
CCC(CC)(CC(=O)Nc1cccc(/C=C/c2nc(C3CCC3)cs2)c1)C(=O)O | 6.96
CNC(=O)N(C)N=O | 1.6
Cn1cc(-c2cnn3c(N)c(Br)c([C@@H]4CCCNC4)nc23)cn1 | -3.05
C[C@]12C=CC(=O)N[C@@H]1CC[C@@H]1[C@@H]2CC[C@]2(C)[C@@H](C(=O)Nc3cc(C(F)(F)F)ccc3C(F)(F)F)CC[C@@H]12 | -2.39
OC[C@H]1O[C@@H](O[C@@H]2[C@@H](CO)OC(O)(CO)[C@H]2O)[C@H](O)[C@@H](O)[C@H]1O (mixture of isomers) | 23.1
CC(=O)Oc1cc(C(C)C)c(OCCN(C)C)cc1C | -3.52
Cc1cc(Nc2cc(N3CCN(C)CC3)nc(Sc3ccc(NC(=O)C4CC4)cc3)n2)n[nH]1 | -0.71
C[C@@H]([C@H](C)O)[C@H](N)C(=O)O | -1.8
COc1ccc2c(c1)c(C1=C(c3c[nH]c4ccccc34)C(=O)NC1=O)cn2CCCN(C)C | 11.3
CCCC1O[C@@H]2C[C@H]3[C@@H]4CCC5=CC(=O)C=C[C@]5(C)[C@H]4[C@@H](O)C[C@]3(C)[C@]2(C(=O)CO)O1 (some centres unmarked) | 1.92
CC(C)C(=O)Oc1ccc(CO)cc1[C@H](CCN(C(C)C)C(C)C)c1ccccc1 | -1.62
CCOC(=O)Nc1ccc(NCc2c(C)cc(C)cc2C)cc1N | -2.85
Cc1cccc(CN2CCN(C(c3ccccc3)c3ccc(Cl)cc3)CC2)c1 (centres unmarked) | 27.5
C[C@]12CCC(=O)C=C1C=C[C@@H]1[C@@H]2CC[C@@]2(C)[C@H]1CC[C@@]2(O)CCC(=O)O | -2.31
CC(C)c1c(NC(=O)Nc2ccc(Cl)cc2)c(=O)n(-c2ccccc2)n1C | -2.43
O=P(O)(O)CP(=O)(O)O | 1.85
Oc1cc2c(cc1O)C(Cc1cccc3ccccc13)NCC2 (centres unmarked) | 1.25
CN(C)CCCCC(=O)Nc1ccc(NC(=S)NC(=O)c2ccc(C(C)(C)C)cc2)cc1 | -2.51

Study 3 — technique: RNA Bind-n-Seq; form: RNA; matrix: in vitro; concentration: 15 pmol; notes: 4-mer, random 30-nt RNA, single round; together with: 3 µM RocA, 2 mM AMP-PNP; relative to: mean of 4-mers; direction: higher = stronger binding
Target: Eukaryotic initiation factor 4A-I (EIF4A1, Homo sapiens, UniProt P60842, residues 1-406, full length assumed)
UniProt P60842, sequence (whole entry, looked up): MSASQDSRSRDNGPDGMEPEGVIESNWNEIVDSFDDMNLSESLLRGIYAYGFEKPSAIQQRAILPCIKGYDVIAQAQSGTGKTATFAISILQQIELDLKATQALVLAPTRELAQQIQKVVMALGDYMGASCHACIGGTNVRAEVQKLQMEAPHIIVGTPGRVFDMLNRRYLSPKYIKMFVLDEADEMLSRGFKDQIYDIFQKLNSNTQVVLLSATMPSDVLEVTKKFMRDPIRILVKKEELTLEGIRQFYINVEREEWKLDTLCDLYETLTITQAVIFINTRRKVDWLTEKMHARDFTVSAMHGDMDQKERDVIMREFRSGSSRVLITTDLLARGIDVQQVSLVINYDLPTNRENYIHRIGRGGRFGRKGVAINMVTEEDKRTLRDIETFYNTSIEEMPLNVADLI
Oligonucleotide | 4-mer enrichment Z-score
GAUC | -0.707
UAUC | -1.04
AUAU | 0.183

Study 4 — technique: RNA Bind-n-Seq; form: RNA; matrix: in vitro; concentration: 20 nM; notes: 6-mer, flanks averaged, single round; together with: 150 mM KCl; relative to: input library; direction: higher = stronger binding
Target: TAR DNA-binding protein 43, full length, His tag (TARDBP, Homo sapiens, UniProt Q13148, residues 1-414)
Oligonucleotide | 6-mer enrichment (R)
UUUGCA | 0.675
GCGUGG | 3.54
CGUCAC | 0.669
GGUUUA | 0.809
GAGGAU | 1.45
GCUCGC | 0.781
AUUUCG | 0.585
AGUUAU | 0.623

Study 5 — cell line: HEK-293T-ACE2; concentration: concentration not given; relative to: vehicle
Structure (SMILES) | cell number [%]
CC(C)NCC(O)COc1ccc(COCCOC(C)C)cc1.CC(C)NCC(O)COc1ccc(COCCOC(C)C)cc1.O=C(O)/C=C/C(=O)O (racemic) | 100
O=C(O)C(=O)O.[NH-][C@@H]1CCCC[C@H]1[NH-].[Pt+2] | 100
COc1cc2c(cc1Cc1cccc(Cl)c1F)c(=O)c(C(=O)O)cn2[C@H](CO)C(C)C | 104
COC(=O)c1ccc2c(c1)NC(=O)/C2=C(\Nc1ccc(N(C)C(=O)CN2CCN(C)CC2)cc1)c1ccccc1 | 104

Excerpt of the above (study 2):
Structure (SMILES) | inhibition [%]
CC(=O)Oc1cc(C(C)C)c(OCCN(C)C)cc1C | -3.52
OC[C@H]1O[C@@H](O[C@@H]2[C@@H](CO)OC(O)(CO)[C@H]2O)[C@H](O)[C@@H](O)[C@H]1O (mixture of isomers) | 23.1
C[C@]12C=CC(=O)N[C@@H]1CC[C@@H]1[C@@H]2CC[C@]2(C)[C@@H](C(=O)Nc3cc(C(F)(F)F)ccc3C(F)(F)F)CC[C@@H]12 | -2.39
